Results of several laboratories.
Parts stem from different laboratories: compare values within a part only.
UniProt O75385, sequence (whole entry, looked up): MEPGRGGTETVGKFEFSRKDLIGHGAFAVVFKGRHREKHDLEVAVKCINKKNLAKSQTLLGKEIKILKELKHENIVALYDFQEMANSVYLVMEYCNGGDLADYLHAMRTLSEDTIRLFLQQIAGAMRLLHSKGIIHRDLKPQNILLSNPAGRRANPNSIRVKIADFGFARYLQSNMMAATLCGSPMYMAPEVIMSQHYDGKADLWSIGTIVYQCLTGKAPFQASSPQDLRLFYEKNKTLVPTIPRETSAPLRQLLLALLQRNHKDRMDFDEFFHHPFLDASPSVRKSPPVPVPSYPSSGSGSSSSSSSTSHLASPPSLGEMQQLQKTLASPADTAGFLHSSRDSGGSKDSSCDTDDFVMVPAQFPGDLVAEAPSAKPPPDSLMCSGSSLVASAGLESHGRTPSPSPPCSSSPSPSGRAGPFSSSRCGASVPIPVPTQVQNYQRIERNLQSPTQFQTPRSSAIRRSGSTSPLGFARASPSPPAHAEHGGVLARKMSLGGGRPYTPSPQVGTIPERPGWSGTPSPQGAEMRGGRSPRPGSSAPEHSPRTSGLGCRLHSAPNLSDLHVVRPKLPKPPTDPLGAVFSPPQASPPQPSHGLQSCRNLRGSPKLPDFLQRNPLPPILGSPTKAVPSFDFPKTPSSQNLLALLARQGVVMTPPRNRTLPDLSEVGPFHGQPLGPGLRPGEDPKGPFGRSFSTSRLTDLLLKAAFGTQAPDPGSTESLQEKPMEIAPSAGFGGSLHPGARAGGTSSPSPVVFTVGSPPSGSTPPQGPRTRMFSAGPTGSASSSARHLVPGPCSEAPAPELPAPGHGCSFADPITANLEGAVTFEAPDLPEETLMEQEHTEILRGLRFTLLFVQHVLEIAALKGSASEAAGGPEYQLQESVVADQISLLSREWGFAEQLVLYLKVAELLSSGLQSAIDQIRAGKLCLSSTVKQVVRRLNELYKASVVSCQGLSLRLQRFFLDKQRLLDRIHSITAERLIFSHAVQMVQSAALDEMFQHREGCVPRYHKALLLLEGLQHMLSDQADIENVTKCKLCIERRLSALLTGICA
UniProt P51813, sequence (whole entry, looked up): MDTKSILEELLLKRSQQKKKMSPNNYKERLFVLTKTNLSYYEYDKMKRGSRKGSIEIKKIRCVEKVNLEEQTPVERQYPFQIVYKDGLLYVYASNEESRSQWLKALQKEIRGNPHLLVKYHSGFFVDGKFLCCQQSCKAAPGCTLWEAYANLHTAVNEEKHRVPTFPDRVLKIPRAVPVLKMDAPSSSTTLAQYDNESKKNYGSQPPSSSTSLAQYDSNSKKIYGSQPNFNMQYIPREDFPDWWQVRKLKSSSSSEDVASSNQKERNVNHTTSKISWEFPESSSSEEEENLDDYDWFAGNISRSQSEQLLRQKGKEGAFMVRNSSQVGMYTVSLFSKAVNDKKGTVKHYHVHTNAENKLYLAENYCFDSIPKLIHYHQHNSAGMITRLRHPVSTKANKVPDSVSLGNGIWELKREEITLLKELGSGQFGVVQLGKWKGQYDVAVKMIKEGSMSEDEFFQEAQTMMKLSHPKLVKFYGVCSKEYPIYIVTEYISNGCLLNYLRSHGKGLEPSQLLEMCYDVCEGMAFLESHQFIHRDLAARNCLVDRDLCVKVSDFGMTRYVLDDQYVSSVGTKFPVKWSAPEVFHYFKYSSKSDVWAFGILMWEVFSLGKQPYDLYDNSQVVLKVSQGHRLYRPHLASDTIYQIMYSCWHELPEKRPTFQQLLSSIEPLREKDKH
UniProt Q13304, sequence (whole entry, looked up): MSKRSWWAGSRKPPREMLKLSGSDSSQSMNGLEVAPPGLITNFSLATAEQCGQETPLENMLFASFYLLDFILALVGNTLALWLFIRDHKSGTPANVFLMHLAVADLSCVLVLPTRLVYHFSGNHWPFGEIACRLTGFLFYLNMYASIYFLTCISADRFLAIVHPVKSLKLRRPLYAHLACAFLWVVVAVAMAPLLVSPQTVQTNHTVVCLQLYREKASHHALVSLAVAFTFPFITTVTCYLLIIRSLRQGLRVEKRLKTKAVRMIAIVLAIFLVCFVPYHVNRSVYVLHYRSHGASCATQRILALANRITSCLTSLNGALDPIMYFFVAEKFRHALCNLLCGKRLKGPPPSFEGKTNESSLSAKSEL
UniProt P50750, sequence (whole entry, looked up): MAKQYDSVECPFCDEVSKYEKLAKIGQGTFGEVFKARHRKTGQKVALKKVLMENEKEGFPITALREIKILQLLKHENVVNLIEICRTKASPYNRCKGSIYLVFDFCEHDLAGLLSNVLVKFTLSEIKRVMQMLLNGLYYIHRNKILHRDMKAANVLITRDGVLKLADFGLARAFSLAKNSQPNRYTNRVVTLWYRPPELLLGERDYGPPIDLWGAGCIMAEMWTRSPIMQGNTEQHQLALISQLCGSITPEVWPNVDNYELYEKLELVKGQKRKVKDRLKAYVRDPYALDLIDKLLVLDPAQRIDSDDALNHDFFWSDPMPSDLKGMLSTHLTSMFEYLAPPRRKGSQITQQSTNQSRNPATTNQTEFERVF
UniProt P21453, sequence (whole entry, looked up): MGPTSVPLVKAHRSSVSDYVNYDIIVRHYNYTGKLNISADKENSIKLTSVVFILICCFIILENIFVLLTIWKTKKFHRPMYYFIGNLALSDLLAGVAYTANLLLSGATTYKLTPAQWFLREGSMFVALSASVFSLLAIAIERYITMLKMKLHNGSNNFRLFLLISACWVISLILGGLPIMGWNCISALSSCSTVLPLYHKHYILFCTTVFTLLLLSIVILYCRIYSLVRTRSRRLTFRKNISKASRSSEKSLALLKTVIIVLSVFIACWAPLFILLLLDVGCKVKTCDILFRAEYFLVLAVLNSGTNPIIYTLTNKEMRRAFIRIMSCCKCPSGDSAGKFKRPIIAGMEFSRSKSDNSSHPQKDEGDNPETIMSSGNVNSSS
UniProt Q9NZD1, sequence (whole entry, looked up): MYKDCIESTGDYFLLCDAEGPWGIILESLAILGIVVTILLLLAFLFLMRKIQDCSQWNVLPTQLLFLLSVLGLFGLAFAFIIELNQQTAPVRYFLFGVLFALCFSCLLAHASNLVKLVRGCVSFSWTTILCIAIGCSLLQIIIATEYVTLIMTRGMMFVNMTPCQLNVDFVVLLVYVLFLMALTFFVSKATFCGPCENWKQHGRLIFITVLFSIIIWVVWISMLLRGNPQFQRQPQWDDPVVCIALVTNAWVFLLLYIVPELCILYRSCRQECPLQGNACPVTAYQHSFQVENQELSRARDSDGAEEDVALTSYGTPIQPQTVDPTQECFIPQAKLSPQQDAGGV
UniProt Q9NS67, sequence (whole entry, looked up): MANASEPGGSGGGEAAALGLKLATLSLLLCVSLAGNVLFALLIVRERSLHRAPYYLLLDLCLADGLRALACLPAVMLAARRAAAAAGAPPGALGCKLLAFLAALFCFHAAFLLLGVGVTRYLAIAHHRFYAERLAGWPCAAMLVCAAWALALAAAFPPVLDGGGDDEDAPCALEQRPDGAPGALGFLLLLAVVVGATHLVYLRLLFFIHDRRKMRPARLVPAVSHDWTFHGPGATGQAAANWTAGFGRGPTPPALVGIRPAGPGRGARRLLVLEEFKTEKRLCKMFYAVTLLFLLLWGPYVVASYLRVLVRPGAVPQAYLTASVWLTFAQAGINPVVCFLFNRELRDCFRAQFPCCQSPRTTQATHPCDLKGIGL
UniProt Q6P2M8, sequence (whole entry, looked up): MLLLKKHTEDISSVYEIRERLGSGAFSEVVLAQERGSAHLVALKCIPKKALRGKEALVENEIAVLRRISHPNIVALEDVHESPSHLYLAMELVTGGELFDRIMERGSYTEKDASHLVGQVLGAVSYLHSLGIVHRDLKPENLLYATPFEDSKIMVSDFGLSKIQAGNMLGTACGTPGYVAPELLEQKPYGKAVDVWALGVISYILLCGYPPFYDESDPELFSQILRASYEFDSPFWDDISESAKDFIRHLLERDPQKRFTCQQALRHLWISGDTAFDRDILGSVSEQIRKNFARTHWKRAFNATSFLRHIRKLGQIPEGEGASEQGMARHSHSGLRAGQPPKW
UniProt Q13188, sequence (whole entry, looked up): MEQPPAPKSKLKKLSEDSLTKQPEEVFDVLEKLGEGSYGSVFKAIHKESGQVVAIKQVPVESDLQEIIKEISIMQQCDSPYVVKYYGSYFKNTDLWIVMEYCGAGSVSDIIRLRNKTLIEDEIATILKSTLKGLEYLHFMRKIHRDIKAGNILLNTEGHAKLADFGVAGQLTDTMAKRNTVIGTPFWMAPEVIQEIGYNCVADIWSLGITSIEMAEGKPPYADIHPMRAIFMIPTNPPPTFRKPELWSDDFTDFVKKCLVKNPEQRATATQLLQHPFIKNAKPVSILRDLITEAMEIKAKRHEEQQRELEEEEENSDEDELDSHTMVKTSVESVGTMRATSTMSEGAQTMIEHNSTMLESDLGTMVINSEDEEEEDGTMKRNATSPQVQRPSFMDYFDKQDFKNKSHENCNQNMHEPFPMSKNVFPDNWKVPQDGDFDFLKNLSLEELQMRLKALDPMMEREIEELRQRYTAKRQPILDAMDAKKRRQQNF

Block 1 — effect on: enzyme activity; mode: inhibitor; tested at: 0.5 µM; relative to: control
Target: Ribosomal protein S6 kinase beta-2 (RPS6KB2, Homo sapiens, UniProt Q9UBS0)
UniProt Q9UBS0, sequence (whole entry, looked up): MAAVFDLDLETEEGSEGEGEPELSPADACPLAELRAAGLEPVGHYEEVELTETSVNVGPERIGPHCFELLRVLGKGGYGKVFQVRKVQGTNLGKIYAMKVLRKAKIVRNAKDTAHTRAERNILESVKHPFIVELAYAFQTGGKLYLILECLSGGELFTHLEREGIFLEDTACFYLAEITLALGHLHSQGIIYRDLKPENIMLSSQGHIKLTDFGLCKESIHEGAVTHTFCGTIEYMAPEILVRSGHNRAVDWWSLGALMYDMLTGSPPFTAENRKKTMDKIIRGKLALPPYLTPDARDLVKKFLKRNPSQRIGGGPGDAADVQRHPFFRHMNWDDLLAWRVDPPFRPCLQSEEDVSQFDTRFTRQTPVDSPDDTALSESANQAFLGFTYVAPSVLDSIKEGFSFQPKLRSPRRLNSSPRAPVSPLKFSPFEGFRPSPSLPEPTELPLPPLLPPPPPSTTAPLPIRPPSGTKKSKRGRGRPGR
`COc1cccc(-c2cc(=O)c3ccccc3o2)c1N` gave a remaining activity of 84.5%.
`Cc1ccc(S(=O)(=O)/C=C/C#N)cc1` has a remaining activity of 109%.
The remaining activity of `O=C1NC(=O)c2c1c1c3ccccc3[nH]c1c1[nH]c3cc(Br)ccc3c21` is reported as 83.9%.
With `Oc1cccc(-c2nc(N3CCOCC3)c3oc4ncccc4c3n2)c1` the remaining activity was 95.8%.
With `O=C1Nc2ccccc2/C1=C\c1c(Cl)[nH]c2ccccc12` the remaining activity was 99.4%.
For `COc1ccc2c(c1)c(C1=C(c3c[nH]c4ccccc34)C(=O)NC1=O)cn2CCCN(C)C`, the remaining activity was 65.4%.
With `COc1ccc(COc2ccc(Cc3cnc(N)nc3N)cc2OC)cc1` the remaining activity was 100%.
`CN1CCN(c2ccc3nc(-c4c(N)c5c(F)cccc5[nH]c4=O)[nH]c3c2)CC1` gave a remaining activity of 100%.
With `CCCNC(=O)Nc1ccc(Oc2ncnc3cc(OC)c(OC)cc23)cc1Cl` the remaining activity was 104%.

Block 2 — effect on: β-arrestin recruitment; mode: agonist; method: PRESTO-Tango; tested at: 10 µM; relative to: untreated
SMILES: N=C(N)NC(=O)c1cnn(-c2cccc3ncccc23)c1C1CC1
The “fold over basal” was 0.74 fold (FFAR2 (Homo sapiens, UniProt O15552)).
For G-protein coupled receptor family C group 5 member D (GPRC5D, Homo sapiens, UniProt Q9NZD1): “fold over basal” read 0.52.
The “fold over basal” was 0.76 (MC1R (Homo sapiens, UniProt Q01726)).
The “fold over basal” was 0.87 (GPR17 (Homo sapiens, UniProt Q13304)).
The “fold over basal” was 0.85 fold (HCAR2 (Homo sapiens, UniProt Q8TDS4)).
S1PR1 (Homo sapiens, UniProt P21453) — “fold over basal”: 1.03.
For Probable G-protein coupled receptor 27 (Homo sapiens, UniProt Q9NS67): “fold over basal” read 1.69.
The “fold over basal” was 0.81 fold (SSTR3 (Homo sapiens, UniProt P32745)).
It gave 1.25 for “fold over basal” (G-protein coupled receptor 87 (GPR87, Homo sapiens, UniProt Q9BY21)).

Block 3 — effect on: cell-free assay; method: competition with immobilised ligand; tested at: 1 µM
SMILES: CNCc1ccccc1-c1csc([C@@H](C)Nc2nc(C)nc3cc(OC)c(OC)cc23)c1
It gave 88% for remaining binding (ULK1 (Homo sapiens, UniProt O75385)).
The remaining binding was 95% (PNCK (Homo sapiens, UniProt Q6P2M8)).
The remaining binding was 93% (AXL (Homo sapiens, UniProt P30530)).
Cyclin-dependent kinase 4, with cyclin D1 (CDK4, Homo sapiens, UniProt P11802) — remaining binding: 88%.
For STK4 (Homo sapiens, UniProt Q13043): remaining binding read 100%.
For CDK9 (Homo sapiens, UniProt P50750): remaining binding read 100%.
DYRK1A (Homo sapiens, UniProt Q13627) — remaining binding: 88%.
The remaining binding was 100% (LRRK2 (Homo sapiens, UniProt Q5S007)).
DCLK1 (Homo sapiens, UniProt O15075) — remaining binding: 86%.
It gave 100% for remaining binding (TNNI3K (Homo sapiens, UniProt Q59H18)).
For STK3 (Homo sapiens, UniProt Q13188): remaining binding read 85%.
EPHB4 (Homo sapiens, UniProt P54760) — remaining binding: 99%.
The remaining binding was 64% (TNK1 (Homo sapiens, UniProt Q13470)).
The remaining binding was 49% (BMX (Homo sapiens, UniProt P51813)).
EPHB6 (Homo sapiens, UniProt O15197) — remaining binding: 98%.
The remaining binding was 100% (LYN (Homo sapiens, UniProt P07948)).
The remaining binding was 100% (CAMK1 (Homo sapiens, UniProt Q14012)).

Other studies, line by line — method: SPR; tested at: concentration not given
Target: WD repeat-containing protein 5 (WDR5, Homo sapiens, UniProt P61964)
For `C[C@@H]1CN(c2ccc(-c3cc(C(=O)NCCOCCOCCOCCOCCOCCOCCNC(=O)/C=C/c4[nH]cc(C(=O)N[C@@H](CC(N)=O)c5ccc(F)c(Cl)c5)c4-c4ccc(Cl)cc4F)ccc3F)cc2NC(=O)c2ccc(F)cc2C(F)(F)F)C[C@H](C)N1C`, the binding was 20.7%.
`C[C@@H]1CN(c2ccc(-c3cc(C(=O)NCCOCCOCCOCCOCCNC(=O)Cn4cc(-c5[nH]cc(C(=O)N[C@@H](CC(N)=O)c6ccc(F)c(Cl)c6)c5-c5ccc(Cl)cc5F)cn4)ccc3F)cc2NC(=O)c2c[nH]c(=O)cc2C(F)(F)F)C[C@H](C)N1C` gave a binding of 40.9%.

Repeated from above (block 1):
`COc1cccc(-c2cc(=O)c3ccccc3o2)c1N` gave a remaining activity of 84.5%.
The remaining activity of `O=C1NC(=O)c2c1c1c3ccccc3[nH]c1c1[nH]c3cc(Br)ccc3c21` is reported as 83.9%.
